# Published values collected from several papers.
# A part holds a random share of what one study measured.
# Chain of UniProt Q13705 (whole entry, looked up): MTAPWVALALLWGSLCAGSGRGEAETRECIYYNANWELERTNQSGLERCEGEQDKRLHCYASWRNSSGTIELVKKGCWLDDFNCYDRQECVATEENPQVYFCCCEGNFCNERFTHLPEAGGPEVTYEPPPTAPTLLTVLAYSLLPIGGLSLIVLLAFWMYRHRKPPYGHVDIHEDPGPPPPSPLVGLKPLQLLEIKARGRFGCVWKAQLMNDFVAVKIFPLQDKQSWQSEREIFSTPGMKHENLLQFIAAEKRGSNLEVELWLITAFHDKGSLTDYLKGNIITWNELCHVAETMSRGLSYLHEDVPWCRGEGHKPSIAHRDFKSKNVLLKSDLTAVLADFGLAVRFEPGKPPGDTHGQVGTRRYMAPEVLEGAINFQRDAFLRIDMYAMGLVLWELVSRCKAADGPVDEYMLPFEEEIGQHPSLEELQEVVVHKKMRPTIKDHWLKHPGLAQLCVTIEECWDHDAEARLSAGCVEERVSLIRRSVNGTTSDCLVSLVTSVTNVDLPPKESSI
# Chain of UniProt P49841 (whole entry, looked up): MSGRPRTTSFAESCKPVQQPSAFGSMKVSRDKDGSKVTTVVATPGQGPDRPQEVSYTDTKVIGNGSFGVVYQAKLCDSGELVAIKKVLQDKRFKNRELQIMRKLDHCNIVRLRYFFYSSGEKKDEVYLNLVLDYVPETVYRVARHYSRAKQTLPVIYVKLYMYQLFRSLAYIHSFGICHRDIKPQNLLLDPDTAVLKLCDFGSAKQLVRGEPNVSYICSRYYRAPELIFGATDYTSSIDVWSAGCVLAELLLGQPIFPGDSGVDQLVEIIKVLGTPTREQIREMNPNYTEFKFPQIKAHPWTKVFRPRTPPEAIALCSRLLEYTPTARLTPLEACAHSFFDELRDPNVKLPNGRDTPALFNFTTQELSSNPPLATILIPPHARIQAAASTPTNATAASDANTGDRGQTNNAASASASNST
# Chain of UniProt O95136 (whole entry, looked up): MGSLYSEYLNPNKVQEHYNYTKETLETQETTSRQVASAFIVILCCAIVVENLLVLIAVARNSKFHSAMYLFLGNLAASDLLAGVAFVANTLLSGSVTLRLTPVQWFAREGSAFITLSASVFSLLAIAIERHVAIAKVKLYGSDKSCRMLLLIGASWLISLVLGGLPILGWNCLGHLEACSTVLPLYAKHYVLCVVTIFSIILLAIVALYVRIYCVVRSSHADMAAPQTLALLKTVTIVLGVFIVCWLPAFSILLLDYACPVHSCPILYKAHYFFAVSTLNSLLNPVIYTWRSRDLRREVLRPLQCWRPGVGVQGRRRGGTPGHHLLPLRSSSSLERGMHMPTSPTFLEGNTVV
# Chain of UniProt Q9NSY1 (whole entry, looked up): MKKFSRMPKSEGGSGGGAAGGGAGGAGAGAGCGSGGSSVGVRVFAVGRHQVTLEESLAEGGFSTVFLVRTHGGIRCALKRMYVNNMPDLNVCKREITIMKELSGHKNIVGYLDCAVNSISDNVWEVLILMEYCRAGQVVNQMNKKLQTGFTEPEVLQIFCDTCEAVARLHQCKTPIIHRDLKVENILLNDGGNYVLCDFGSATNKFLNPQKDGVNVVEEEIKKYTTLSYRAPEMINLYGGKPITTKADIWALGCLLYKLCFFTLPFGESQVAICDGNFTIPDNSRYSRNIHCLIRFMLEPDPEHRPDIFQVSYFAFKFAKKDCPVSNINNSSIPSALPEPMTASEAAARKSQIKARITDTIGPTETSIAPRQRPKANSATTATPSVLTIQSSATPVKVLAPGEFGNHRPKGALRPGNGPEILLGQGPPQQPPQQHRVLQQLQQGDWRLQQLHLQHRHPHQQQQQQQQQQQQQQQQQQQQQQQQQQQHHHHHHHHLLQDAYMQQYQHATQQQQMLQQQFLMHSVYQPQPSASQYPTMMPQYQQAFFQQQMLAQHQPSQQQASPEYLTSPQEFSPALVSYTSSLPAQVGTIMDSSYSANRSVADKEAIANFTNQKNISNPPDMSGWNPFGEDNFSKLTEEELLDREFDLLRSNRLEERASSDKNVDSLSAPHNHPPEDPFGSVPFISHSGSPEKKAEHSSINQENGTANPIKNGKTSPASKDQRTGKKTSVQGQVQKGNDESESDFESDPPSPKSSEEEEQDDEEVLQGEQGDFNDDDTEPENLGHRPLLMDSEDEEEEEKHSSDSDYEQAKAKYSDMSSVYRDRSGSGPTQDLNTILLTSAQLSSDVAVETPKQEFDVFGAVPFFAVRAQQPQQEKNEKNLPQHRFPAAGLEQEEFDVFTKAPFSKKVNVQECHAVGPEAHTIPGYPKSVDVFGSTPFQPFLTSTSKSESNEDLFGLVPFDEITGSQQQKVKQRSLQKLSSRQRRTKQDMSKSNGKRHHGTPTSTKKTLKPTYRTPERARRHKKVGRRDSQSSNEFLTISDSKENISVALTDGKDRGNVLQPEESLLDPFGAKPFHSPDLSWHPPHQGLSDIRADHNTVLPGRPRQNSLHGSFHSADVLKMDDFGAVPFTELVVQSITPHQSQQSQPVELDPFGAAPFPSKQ
# Chain of UniProt Q99640 (whole entry, looked up): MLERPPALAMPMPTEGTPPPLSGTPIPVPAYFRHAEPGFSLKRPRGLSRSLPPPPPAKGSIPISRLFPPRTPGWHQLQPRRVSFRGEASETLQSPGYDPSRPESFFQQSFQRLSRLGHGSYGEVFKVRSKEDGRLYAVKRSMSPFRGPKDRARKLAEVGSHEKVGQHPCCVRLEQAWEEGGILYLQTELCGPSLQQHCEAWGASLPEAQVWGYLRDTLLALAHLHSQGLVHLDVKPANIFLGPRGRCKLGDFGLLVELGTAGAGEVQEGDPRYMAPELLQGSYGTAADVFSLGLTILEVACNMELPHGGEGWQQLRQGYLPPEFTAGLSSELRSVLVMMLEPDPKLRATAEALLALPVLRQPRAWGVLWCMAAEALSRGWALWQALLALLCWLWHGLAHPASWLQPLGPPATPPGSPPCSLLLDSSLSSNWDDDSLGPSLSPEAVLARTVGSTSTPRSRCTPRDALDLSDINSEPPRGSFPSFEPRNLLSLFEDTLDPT
# Chain of UniProt Q8IYT8 (whole entry, looked up): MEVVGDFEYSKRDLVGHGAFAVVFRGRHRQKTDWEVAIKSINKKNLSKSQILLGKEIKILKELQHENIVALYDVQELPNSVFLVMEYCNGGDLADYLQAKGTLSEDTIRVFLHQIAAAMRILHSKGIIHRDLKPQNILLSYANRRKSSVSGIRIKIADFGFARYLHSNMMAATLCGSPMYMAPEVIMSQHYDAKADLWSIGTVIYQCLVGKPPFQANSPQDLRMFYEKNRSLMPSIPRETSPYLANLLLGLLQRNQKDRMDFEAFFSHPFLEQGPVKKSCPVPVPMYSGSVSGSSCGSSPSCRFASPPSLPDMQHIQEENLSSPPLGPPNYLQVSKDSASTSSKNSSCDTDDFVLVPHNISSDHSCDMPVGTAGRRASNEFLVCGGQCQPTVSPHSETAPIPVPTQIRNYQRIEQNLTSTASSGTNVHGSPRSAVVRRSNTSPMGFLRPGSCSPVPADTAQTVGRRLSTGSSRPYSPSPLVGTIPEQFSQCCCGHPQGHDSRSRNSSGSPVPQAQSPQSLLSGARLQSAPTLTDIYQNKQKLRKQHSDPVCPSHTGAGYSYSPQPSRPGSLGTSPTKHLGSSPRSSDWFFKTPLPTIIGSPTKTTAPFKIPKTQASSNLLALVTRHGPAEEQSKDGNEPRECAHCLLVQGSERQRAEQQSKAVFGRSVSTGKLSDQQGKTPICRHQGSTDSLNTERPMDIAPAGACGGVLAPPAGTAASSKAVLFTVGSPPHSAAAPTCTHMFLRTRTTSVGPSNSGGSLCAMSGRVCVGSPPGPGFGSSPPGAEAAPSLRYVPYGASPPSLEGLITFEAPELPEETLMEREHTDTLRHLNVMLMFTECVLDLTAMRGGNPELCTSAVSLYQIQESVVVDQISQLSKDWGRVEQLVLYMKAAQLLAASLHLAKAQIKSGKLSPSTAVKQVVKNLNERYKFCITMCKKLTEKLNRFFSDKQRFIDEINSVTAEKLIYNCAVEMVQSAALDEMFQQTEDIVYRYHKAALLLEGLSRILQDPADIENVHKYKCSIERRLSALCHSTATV
# Chain of UniProt Q8NE63 (whole entry, looked up): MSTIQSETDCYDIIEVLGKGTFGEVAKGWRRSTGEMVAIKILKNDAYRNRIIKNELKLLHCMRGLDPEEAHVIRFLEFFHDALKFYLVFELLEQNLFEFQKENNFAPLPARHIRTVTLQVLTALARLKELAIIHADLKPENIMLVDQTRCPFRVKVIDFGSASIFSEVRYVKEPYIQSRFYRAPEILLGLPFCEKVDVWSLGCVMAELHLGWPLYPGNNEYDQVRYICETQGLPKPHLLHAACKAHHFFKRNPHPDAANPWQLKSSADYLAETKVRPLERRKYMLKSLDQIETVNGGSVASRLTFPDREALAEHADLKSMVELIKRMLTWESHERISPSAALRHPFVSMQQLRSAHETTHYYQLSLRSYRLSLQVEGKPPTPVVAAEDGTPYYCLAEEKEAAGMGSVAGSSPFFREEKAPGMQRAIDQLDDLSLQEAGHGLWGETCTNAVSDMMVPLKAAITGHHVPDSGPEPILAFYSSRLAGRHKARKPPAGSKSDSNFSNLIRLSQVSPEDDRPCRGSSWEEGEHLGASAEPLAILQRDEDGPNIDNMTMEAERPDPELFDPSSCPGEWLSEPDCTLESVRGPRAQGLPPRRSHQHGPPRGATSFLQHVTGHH
# Chain of UniProt Q9HCP0 (whole entry, looked up): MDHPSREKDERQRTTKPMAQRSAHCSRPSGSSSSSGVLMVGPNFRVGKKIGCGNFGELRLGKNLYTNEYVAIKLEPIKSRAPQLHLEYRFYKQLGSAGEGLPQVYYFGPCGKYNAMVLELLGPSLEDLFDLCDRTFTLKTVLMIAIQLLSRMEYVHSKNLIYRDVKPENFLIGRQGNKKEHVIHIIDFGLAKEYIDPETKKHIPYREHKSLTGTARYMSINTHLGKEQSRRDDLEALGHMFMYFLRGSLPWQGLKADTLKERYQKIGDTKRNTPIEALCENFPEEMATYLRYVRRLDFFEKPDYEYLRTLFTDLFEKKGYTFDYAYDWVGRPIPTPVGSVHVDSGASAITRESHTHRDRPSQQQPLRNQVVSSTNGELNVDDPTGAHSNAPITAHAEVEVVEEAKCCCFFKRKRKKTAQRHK

# Study 1
# Compound: N=C(N)NC(=O)c1cnn(-c2cccc3ncccc23)c1C1CC1
# Observed: β-arrestin recruitment
# Action: agonist
# Method: PRESTO-Tango
# Tested at: 10 µM
# Baseline: untreated
target,fold over basal
"P2Y purinoceptor 4 (P2RY4, Homo sapiens, UniProt P51582)",0.93
"Beta-2 adrenergic receptor (ADRB2, Homo sapiens, UniProt P07550)",0.9
"Galanin receptor type 1 (GALR1, Homo sapiens, UniProt P47211)",0.95 fold
"Metabotropic glutamate receptor 6 (Homo sapiens, UniProt O15303)",0.94 fold
"Sphingosine 1-phosphate receptor 2 (S1PR2, Homo sapiens, UniProt O95136)",1.08
"Vasopressin V2 receptor (AVPR2, Homo sapiens, UniProt P30518)",1.15

# Study 2
# SMILES: C[C@@H]1CCN(C(=O)CC#N)C[C@@H]1N(C)c1ncnc2[nH]ccc12
# Observed: enzyme activity
# Action: inhibitor
# Tested at: 0.5 µM
# Baseline: control
target,remaining activity [%]
"Mitogen-activated protein kinase 3 (MAPK3, Homo sapiens, UniProt P27361)",98.6
"Tyrosine-protein kinase FRK (FRK, Homo sapiens, UniProt P42685)",106
"Serine/threonine-protein kinase ULK2 (ULK2, Homo sapiens, UniProt Q8IYT8)",92
"Serine/threonine-protein kinase ULK3 (ULK3, Homo sapiens, UniProt Q6PHR2)",101
"Glycogen synthase kinase-3 beta (GSK3B, Homo sapiens, UniProt P49841)",99.6
"Serine/threonine-protein kinase Nek1 (NEK1, Homo sapiens, UniProt Q96PY6)",84.6
"Tyrosine-protein kinase Lck (LCK, Homo sapiens, UniProt P06239)",80.2
"Activin receptor type-1B (ACVR1B, Homo sapiens, UniProt P36896)",99.8
"Ephrin type-A receptor 3 (EPHA3, Homo sapiens, UniProt P29320)",94.1
"Serine/threonine-protein kinase TAO2 (TAOK2, Homo sapiens, UniProt Q9UL54)",100
"MAP kinase-activated protein kinase 2 (MAPKAPK2, Homo sapiens, UniProt P49137)",96.6
"Dual specificity mitogen-activated protein kinase kinase 2 (MAP2K2, Homo sapiens, UniProt P36507)",117

# Study 3
# Cell line: HH
# Tested at: 2 µM
# Time: 48 h
# Baseline: untreated
Structure (SMILES),viability [%]
Cc1c(F)cc(C(=O)NC2CC2)cc1-c1ccc(C(=O)NCC(C)(C)C)cn1,90
COc1ccccc1-c1cc(Nc2cccc(CS(N)(=O)=O)c2)ncn1,84.2
COc1cc(Nc2ncc(F)c(Nc3ccc4c(n3)N(COP(=O)(O)O)C(=O)C(C)(C)O4)n2)cc(OC)c1OC,92.9
COc1ccc(CNC(=O)Nc2ncc([N+](=O)[O-])s2)cc1,81.7
Cc1[nH]c(/C=C2\C(=O)Nc3ccccc32)c(C)c1CCC(=O)O,137
NC1(c2ccc(-c3nc4ccn5c(=O)[nH]nc5c4cc3-c3ccccc3)cc2)CCC1,97.5
NC1(Cc2ccc(Cl)cc2)CCN(c2ncnc3[nH]ccc23)CC1,54.7
CNC(=O)c1cc(Oc2ccc(NC(=O)Nc3ccc(Cl)c(C(F)(F)F)c3)c(F)c2)ccn1,94.5
CCN(C)S(=O)(=O)Nc1ccc(F)c(C(=O)c2c[nH]c3ncc(-c4cnc(C5CC5)nc4)cc23)c1F,78.9
O=C1NC(=O)/C(=C/c2cccc(C(F)(F)F)c2)S1,104

# Study 4
# Structure (SMILES): O=C(N[C@H]1CCCCC/C=C\C2C[C@@]2(C(=O)O)NC(=O)[C@@H]2C[C@@H](Oc3ccncc3)CN2C1=O)OC1CCCC1 (stereo partly drawn)
# Observed: binding
# Method: competition with immobilised ligand
# Tested at: 1 µM
target,remaining binding [%]
"Casein kinase I isoform gamma-1 (CSNK1G1, Homo sapiens, UniProt Q9HCP0)",88
"Receptor-type tyrosine-protein kinase FLT3 (FLT3, Homo sapiens, UniProt P36888, D835Y)",98
"Membrane-associated tyrosine- and threonine-specific cdc2-inhibitory kinase (PKMYT1, Homo sapiens, UniProt Q99640)",97
"Homeodomain-interacting protein kinase 4 (HIPK4, Homo sapiens, UniProt Q8NE63)",100
"Serine/threonine-protein kinase Sgk2 (SGK2, Homo sapiens, UniProt Q9HBY8)",100
"Activin receptor type-2B (ACVR2B, Homo sapiens, UniProt Q13705)",100
"Activated CDC42 kinase 1 (TNK2, Homo sapiens, UniProt Q07912)",100
"BMP-2-inducible protein kinase (BMP2K, Homo sapiens, UniProt Q9NSY1)",96

# Excerpt of the above (study 2):
target,remaining activity [%]
"Tyrosine-protein kinase FRK (FRK, Homo sapiens, UniProt P42685)",106
"Serine/threonine-protein kinase ULK2 (ULK2, Homo sapiens, UniProt Q8IYT8)",92
"Serine/threonine-protein kinase ULK3 (ULK3, Homo sapiens, UniProt Q6PHR2)",101
